Measured values collected from several papers.
Each numbered part is a random draw from the data of one study; scales do not carry over between parts.

Set 1
Target: Ras GTPase-activating protein-binding protein 1, full length (G3BP1, Homo sapiens, UniProt Q13283)
UniProt Q13283, sequence (whole entry, looked up): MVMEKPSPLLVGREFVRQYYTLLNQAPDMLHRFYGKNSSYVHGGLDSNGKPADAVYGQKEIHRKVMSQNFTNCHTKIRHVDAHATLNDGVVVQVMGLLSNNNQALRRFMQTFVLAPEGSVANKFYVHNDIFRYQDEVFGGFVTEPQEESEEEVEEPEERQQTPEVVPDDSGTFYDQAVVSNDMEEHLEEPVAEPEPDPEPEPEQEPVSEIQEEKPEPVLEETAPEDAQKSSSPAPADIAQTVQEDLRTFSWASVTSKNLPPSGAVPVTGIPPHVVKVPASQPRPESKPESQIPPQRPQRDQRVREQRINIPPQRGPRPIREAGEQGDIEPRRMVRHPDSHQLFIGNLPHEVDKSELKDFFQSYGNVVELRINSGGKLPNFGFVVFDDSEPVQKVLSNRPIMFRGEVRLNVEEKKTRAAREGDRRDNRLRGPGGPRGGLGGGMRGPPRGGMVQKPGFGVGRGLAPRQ
Technique: RNA Bind-n-Seq
Molecule type: RNA
Matrix: in vitro
Concentration: 200 nM
Setting: whole 134-nt RNA, ends assumed
With: 150 mM LiCl
Reference: input library
Direction: higher = stronger binding
All molecules: 7-deaza-guanosine replaces G
Constant ends, left off below: GGGAGUUCUACAGUCCGACGAUC … UGGAAUUCUCGGGUGUCAAGG
Oligonucleotide	log2 enrichment
CCUGUGCUACACAUCGUAUGUACCGAAUCGGGGAAAAAAGGAAAAAAGGGGAAAAAAGGGAAAGUAUUAUGUUACGCCGUUCGGAUCUGC	0.425
CCUCAAGUCCUGUGCUACACAUCGUAUGUACCGAAUCGGUGGAAAGGUUUGGAAAGUAUUAUGUUACGCCGUUCGGAUCUGCACUUCCAG	-0.509
CAAGUCCUGUGCUACACAUCGUAUGUACCGAAUCGGUUUUUGGUGGAAAAAAAGGAAAGUAUUAUGUUACGCCGUUCGGAUCUGCACUUC	-1.04
CUCAAGUCCUGUGCUACACAUCGUAUGUACCGAAUCGGGCCGGCCGGGCCGGGGAAAGUAUUAUGUUACGCCGUUCGGAUCUGCACUUCC	0.466
CCUGUGCUACACAUCGUAUGUACCGAAUCAAAGUGUGUGUGUGUAAAGUGUGUGUGUAAAAAAGUAUUAUGUUACGCCGUUCGGAUCUGC	-0.978
GCAGGAAGUAAAAACAAAUGGAAAUGCUUCGGAUAGUGGCAGGGGUGGGGGUUGCUAAGGAAAGGGUGGGAUGGGAGUCGGUAAAGAGUU	-0.263
CUGUGCUACACAUCGUAUGUACCGAAUCGGCCCCCCCGGGCCCCCCCGGGGCCCCCCCGGGAAAGUAUUAUGUUACGCCGUUCGGAUCUG	-0.339
CUCAAGUCCUGUGCUACACAUCGUAUGUACCGAAUCGGAAAGGUGGAAAAAGGAAAGUAUUAUGUUACGCCGUUCGGAUCUGCACUUCCA	0.0157
AAGUCCUGUGCUACACAUCGUAUGUACCGAAUCGGGGAAAAAGGGGAGGGGUGGGGAAAGUAUUAUGUUACGCCGUUCGGAUCUGCACUU	0.0347
CAAGUCCUGUGCUACACAUCGUAUGUACCGAAUCGGGUGGGAAAAAGGGUUUGGGAAAGUAUUAUGUUACGCCGUUCGGAUCUGCACUUC	-1.78
AAGUCCUGUGCUACACAUCGUAUGUACCGAAUCGGGAAAAAAAGGGAGGGAAAGGGAAAGUAUUAUGUUACGCCGUUCGGAUCUGCACUU	-0.342

Set 2
Target: Myc proto-oncogene protein, bHLH-zipper, MAX partner unstated (MYC, Homo sapiens, UniProt P01106, residues 368-449)
UniProt P01106, sequence (368-449, looked up): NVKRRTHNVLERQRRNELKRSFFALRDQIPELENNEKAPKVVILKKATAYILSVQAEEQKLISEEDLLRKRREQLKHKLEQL
Technique: protein-binding microarray
Molecule type: double-stranded DNA, one strand shown
Matrix: in vitro
Concentration: not given
Setting: k-mer, scored over probes, only values ≥0.25
Direction: higher = stronger binding
Oligonucleotide	E-score
GTGCACAC	0.285
ATGTGACG	0.344
ATGCGCCG	0.279
CTCCACGC	0.41
GGCACCAC	0.259
CACGCGAC	0.446
CATGAGTC	0.284
ATCTCGTG	0.356
ACGTGACC	0.387
GGACACGA	0.273
ACAACACG	0.348
CATGGAGC	0.335
AGGCGTGG	0.389
CACATGTC	0.458

Set 3
Target: RNA binding protein fox-1 homolog 2, RRM domain, GST-SBP tag (RBFOX2, Homo sapiens, UniProt O43251-10, residues 100-194)
Technique: RNA Bind-n-Seq
Molecule type: RNA
Matrix: in vitro
Concentration: 365 nM
Setting: natural RNA segment, single round, ends assumed
Reference: no-protein control
Direction: higher = stronger binding
Constant ends, left off below: GGGAGUUCUACAGUCCGACGAUC … UGGAAUUCUCGGGUGCCAA
Residues (chain): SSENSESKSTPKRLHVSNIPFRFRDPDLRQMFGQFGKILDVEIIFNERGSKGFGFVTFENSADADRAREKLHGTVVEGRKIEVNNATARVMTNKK
Oligonucleotide	RBNS enrichment (R)
CAUUGUAAUGCCCACCAACAUCCCAUCAAAGACAUAUAAUGUGCUGUAGUCCACAUUUUAACACUCAGCAAACAUUCACACAUUCUAAGUUCAACAGGGCUCUUUGAUGA	0.597
UUUCUCUGUAGAGCAGCCACACGUUGUAUAAACAUAAACUGUAUGUGCAGUUAUUUAAAUUUGUUUCUGUCAAAUUAAUCAUUUUUGUUGGACGAUUCAGUGGCGGGGGG	0.721
UCAAGAGGAAUCUGUUUCUCUGCUGUCAACUUCCCAUCUGGCUCAGCAUAGGGUCACUUUGCCAUUAUGCAAAUGGAGAUAAAAGCAAUUCUGACUGUCCAGGAGCUAAU	0.229
CAGAGACUUUGGCUUUUUGUUUAAAGAUGCCUUUAUUUUAGAUCCAGGAGGGGUUUGCUCUGAAUUUGUAAACAAGUCUUCCUCGUCCUCAUGCCCCCACCCCUCUGCUG	0.652
CCAACGCCAGGUAGCAUGUGGCCACCCUUGCCCAGUGUCUGUGGCCUGGCAAGUGGCCACGCCCUGUGUCAGACCAUCUGGGAAUUAAGCUCCAGACAGACUUACAGAUG	1.13
AUUUUUAUGUGAAGAUCCUUCUCGUAUUUCAUUUGGAAGGAUGAGCGAGGUCUGCUUCUUUCUUUUUACUUCCCCUGUGUUUCUGAAAGGCGGUUUGGCCAGGCUUACUG	0.514
CCGAGAAGCCAGGGGCCACCCUGUGAGUCCCAGCAUCCAAAGCCCCGAGAACGAGGAAGAUGGAUGUCCCAGCUCCCAAAGGGAGGAUUCUCCCUUCCUCCUCCUUCUUU	0.657
AAAGUGGAAACCGCUUCCCUUUUCUCCUCUGUGGCAGUUACAAUUUUGACUUCAGGCCUGAGAAAAACUUCAGGUUUCGAAACAUGACAUCUCUUCCUUUUCCAGAUCCC	0.38
CGAGCCUAUCUCAGAUGUACAUUAAUAGACCUCACUGCCUUCCGGGUGAAGGUGUGUUGUCCUACAUAGAACGGUCCCUUCAGUUACCAUUCUGAUUGCUCUAUGCUGCU	0.5
GCUUUGUGUAGAUUUGUGUAGAGCAGGAAAGCCAAGUUCACAGGUUGGGGUGCCUUCAUUUGCAUGCGUGUGCCCUGACCCCAAGAACCCCCAAAUUACUCACAAAUUAA	7.09
GAAAGAAAAAAUACUUAUUUUUACAGAAAUUCUCCAGCAAUAUUUUUAAAAAUACCAACUUGUAUGCACUUUAGAAUGUAAAAUAACAGUGGAUACUUAAGACUCAAAGA	1.38
CCGCCUUUGGCAUUGUGUGUACAUCUGCAGUUUUGCAUGGUGGGUUGUUAAUAUUUCAAAUGUGUGGUUUAUGAAUACGUCUGUAUAAUCGGCUUCUGGAGUGAAACAGC	0.753

Set 4
Target: Histone acetyltransferase KAT6A, winged helix 1, GST fusion (KAT6A, Homo sapiens, UniProt Q92794, residues 1-85)
Technique: protein binding microarray
Molecule type: double-stranded DNA, one strand shown
Matrix: in vitro
Concentration: not given
Setting: 8-mer, flanks averaged, mean of 2 arrays, mostly near background
Reference: not given
Direction: higher = stronger binding
Residues (chain): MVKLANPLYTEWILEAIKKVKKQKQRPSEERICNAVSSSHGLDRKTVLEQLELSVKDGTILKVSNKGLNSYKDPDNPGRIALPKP
Oligonucleotide	E-score
AGGGAGCC	0.144
AGTGCAGC	-0.0344
ACGAATGA	-0.236
GACGACCA	-0.23
AATTCCGC	0.153
AGCGTTTA	0.178
AATGAGTC	-0.0376
ACCACGGC	0.169
AATTCAGA	-0.335
AGGGTGGC	-0.0956
CGGTCCTA	0.173
AAGGTCAA	-0.0615
ATAACTAT	-0.0624
ATAGCGAT	-0.0439
CGTGACTC	-0.01
CATATGTA	-0.16
CCGGTCGA	0.198
ATTGTATG	-0.137
CTAAAAGC	0.0764
GGTAGACC	0.0725
AAAGCTAG	-0.252
AGCTATGA	-0.185
AAGAAGCT	-0.215
CAGGTAGG	0.0898
GGCTATTA	0.129

Set 5
Target: RING finger protein unkempt homolog, zinc fingers 1-6, SBP tag (UNK, Homo sapiens, UniProt Q9C0B0, residues 30-357)
UniProt Q9C0B0, sequence (30-357, looked up): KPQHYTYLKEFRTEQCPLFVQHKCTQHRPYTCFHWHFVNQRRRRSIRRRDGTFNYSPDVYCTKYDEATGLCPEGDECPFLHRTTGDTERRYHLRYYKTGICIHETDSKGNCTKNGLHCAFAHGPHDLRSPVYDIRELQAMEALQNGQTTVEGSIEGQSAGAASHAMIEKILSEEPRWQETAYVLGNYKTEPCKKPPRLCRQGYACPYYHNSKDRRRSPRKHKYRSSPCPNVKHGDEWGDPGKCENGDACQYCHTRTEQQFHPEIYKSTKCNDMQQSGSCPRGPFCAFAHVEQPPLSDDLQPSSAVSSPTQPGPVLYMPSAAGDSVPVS
Technique: RNA Bind-n-Seq
Molecule type: RNA
Matrix: in vitro
Concentration: 100 nM
Setting: RNA with constant flanks, vertebrate orthologous sites, ends assumed
Reference: input RNA pool
Direction: higher = stronger binding
Constant ends, left off below: GGGAGUUCUACAGUCCGACGAUC … CAACAGAGGAUUGAGCAUCA
Oligonucleotide	bound/input enrichment [ratio]
UCCUCAACUUAUUCUAGCUUGUGGUCCUUCAAAAUUGGAUCAUACAUUAGUGCUAGAUUCUAGAAAUUUUCACUUCUCUUUCCACUGAUCAGAGAAACAGAUGUUAGAAACAGAAAUACA	1.71
GUUGUGUUGUGUACAGGGCUUCAUUCUCUGUACAAGUCUGUGGUUAUAAAAUUAGUAAAACAGCUUACAUUUGUAUUUAUUUUCUAGUCCAUACUUCUGUACCCCCAUUUUUUUCUCCCU	0.969
AAAAUAGCAUAGGAGGUUGUGGUGUUUUUGUUUUUUUUAAAAAGGAGCAAUUGGAGAGAGAAGAUACAACUAUCAAGAGCCAGGUGGAUAAAAAGCACAGAUGAAGAUCAUUGAAACUCA	0.905
AGGGAGAAGAACUCACAAACUCAAAGGAAAACUAUUAAAGAGUUUCUAAUAGUUAAAAGCUAGGAAAGAUUAGGACAACUUUACAAAUGAGAAAUCAAAAAUAAAACACAAGAAAAAGGA	0.617
CUCUUUCCUAGGUUGGACCUACUGGAAAAGUCAUAGGAAUUGAUCACAUUAAGGAGUUGGUAGACGACUCAAUAAAUAACGUCAGAAAGGAUGACCCAAUGCUUUUGUCUUCAGGGAGGG	0.437
CAAAUCCUGGUUACUGUGAUAUUUAAAACAUGCACAGUACUCAUUUUUCCCAAAUGAUUCUAGUAAUUGCCUAGAAUUAUCUUUCUCUUACCUGUUAUUUAUCAAUUUUUCCCAGUAUUU	0.929
CAGUGCCCUGGGCCGGGACAGAUUUUUUUUUAACGUCUUGAAACUUAAACUCUGUGCUUGUAGGAUACUGUAACCUUUUUGUCUUUUUUUUUUUUUUUUUUUUUUUUUUAAACCUCCACC	6.11
AGAGGGGCGAUAUUGAAUAGUAUUAAUAUUCUUGUCUUCCUUUACCUUUUGUCCCCUAAUACUUAGUCUUCUUAAAAUUUCAAACUUCACUGCACUUGGAAUUAGUAAUUCCAAUUUUCA	1.1
UUUUGCUUUCAGGUUGUGGCUGAUUUUGUUAAUCCUUCUUUCCUUACGAGUCCUUUUCUUUGCACCCUCCAUAUCCCUUCUUUGACUCAGACAAGUGUGGUAUAUUUUACUUAGUCAUUG	0.496
UUACAGUCAUUGAUGGACUCUAUUUUUUUAUUAUUACUUGGACCUUGGUCGUUUUUAUACUAGCAAAAUGUCUUGUUUUGAUUUGUGUUGUUUUGGUUUUUUUGUUUCGUUUUGUUUUUU	1.58
UCCCAGCACUUUGAUAAAAAGCGUGGACUGGUUGCUUGUAUUUUCCUUAUUCUUUUUAAUUAGUUUUAUUAUGUAUGCUACCAUUCGAACUGAGAGCAUUCGGUGGCUAAUUCCAGGACA	1.77

For quick reference, copied from above (set 3):
Oligonucleotide	RBNS enrichment (R)
CCGAGAAGCCAGGGGCCACCCUGUGAGUCCCAGCAUCCAAAGCCCCGAGAACGAGGAAGAUGGAUGUCCCAGCUCCCAAAGGGAGGAUUCUCCCUUCCUCCUCCUUCUUU	0.657
AAAGUGGAAACCGCUUCCCUUUUCUCCUCUGUGGCAGUUACAAUUUUGACUUCAGGCCUGAGAAAAACUUCAGGUUUCGAAACAUGACAUCUCUUCCUUUUCCAGAUCCC	0.38
CGAGCCUAUCUCAGAUGUACAUUAAUAGACCUCACUGCCUUCCGGGUGAAGGUGUGUUGUCCUACAUAGAACGGUCCCUUCAGUUACCAUUCUGAUUGCUCUAUGCUGCU	0.5
GCUUUGUGUAGAUUUGUGUAGAGCAGGAAAGCCAAGUUCACAGGUUGGGGUGCCUUCAUUUGCAUGCGUGUGCCCUGACCCCAAGAACCCCCAAAUUACUCACAAAUUAA	7.09
GAAAGAAAAAAUACUUAUUUUUACAGAAAUUCUCCAGCAAUAUUUUUAAAAAUACCAACUUGUAUGCACUUUAGAAUGUAAAAUAACAGUGGAUACUUAAGACUCAAAGA	1.38
